Measured values pooled from the literature.
Numbers after ± are the reported error.
ERBB2: Receptor tyrosine-protein kinase erbB-2 (ERBB2, Homo sapiens, UniProt P04626)
Chain of UniProt Q08460 (whole entry, looked up): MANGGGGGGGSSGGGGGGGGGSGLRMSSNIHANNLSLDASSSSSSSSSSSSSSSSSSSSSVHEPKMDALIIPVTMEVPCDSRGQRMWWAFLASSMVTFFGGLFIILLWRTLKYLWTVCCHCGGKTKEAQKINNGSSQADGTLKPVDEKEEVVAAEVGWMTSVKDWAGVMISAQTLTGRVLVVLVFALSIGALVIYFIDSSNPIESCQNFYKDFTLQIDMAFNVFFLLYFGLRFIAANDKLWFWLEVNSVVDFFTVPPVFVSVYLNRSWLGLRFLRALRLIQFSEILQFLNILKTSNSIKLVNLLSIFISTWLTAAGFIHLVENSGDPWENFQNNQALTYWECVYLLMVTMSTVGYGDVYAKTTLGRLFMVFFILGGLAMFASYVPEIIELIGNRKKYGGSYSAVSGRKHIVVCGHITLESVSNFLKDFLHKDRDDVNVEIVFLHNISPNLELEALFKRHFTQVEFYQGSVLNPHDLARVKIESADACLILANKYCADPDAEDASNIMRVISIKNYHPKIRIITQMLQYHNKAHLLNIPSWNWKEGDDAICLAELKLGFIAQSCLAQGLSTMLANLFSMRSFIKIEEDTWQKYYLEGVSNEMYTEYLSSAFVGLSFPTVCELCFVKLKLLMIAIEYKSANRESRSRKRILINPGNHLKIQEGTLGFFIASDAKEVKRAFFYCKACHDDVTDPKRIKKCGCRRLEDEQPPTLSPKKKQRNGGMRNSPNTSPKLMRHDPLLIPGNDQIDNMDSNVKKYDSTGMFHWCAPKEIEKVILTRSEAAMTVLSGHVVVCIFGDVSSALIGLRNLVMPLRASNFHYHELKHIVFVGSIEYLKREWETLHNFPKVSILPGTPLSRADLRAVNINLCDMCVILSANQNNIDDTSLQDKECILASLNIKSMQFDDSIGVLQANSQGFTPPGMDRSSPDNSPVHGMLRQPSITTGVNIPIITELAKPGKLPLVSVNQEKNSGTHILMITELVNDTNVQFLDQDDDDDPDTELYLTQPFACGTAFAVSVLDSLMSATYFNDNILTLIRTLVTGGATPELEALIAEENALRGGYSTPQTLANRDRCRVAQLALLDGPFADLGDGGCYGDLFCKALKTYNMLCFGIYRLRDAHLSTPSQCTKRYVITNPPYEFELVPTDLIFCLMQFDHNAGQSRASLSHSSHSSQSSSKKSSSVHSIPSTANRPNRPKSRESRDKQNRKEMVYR
Chain of UniProt P08138 (whole entry, looked up): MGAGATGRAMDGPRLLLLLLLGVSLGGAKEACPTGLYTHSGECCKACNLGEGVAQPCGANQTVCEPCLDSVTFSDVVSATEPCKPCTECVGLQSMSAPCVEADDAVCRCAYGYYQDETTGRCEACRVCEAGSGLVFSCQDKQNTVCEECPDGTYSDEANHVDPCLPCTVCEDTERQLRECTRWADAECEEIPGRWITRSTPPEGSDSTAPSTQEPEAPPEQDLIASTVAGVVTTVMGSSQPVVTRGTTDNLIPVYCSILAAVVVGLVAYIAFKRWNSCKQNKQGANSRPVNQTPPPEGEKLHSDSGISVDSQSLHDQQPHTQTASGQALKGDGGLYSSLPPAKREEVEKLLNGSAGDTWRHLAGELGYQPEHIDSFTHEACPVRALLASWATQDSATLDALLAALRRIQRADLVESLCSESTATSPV
Chain of UniProt P53634 (whole entry, looked up): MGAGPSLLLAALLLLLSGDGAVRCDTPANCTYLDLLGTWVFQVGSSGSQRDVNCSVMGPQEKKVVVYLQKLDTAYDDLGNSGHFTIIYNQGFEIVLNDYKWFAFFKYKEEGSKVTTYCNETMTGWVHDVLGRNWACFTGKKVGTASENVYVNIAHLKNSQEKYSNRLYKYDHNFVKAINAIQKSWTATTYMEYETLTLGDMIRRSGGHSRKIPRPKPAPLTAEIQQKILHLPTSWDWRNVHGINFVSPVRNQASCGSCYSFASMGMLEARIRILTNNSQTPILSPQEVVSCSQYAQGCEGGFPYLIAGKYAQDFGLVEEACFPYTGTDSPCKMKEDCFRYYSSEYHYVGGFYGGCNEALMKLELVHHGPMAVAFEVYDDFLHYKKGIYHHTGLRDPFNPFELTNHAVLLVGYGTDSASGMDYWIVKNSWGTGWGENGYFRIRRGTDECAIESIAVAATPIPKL
Chain of UniProt P18564 (whole entry, looked up): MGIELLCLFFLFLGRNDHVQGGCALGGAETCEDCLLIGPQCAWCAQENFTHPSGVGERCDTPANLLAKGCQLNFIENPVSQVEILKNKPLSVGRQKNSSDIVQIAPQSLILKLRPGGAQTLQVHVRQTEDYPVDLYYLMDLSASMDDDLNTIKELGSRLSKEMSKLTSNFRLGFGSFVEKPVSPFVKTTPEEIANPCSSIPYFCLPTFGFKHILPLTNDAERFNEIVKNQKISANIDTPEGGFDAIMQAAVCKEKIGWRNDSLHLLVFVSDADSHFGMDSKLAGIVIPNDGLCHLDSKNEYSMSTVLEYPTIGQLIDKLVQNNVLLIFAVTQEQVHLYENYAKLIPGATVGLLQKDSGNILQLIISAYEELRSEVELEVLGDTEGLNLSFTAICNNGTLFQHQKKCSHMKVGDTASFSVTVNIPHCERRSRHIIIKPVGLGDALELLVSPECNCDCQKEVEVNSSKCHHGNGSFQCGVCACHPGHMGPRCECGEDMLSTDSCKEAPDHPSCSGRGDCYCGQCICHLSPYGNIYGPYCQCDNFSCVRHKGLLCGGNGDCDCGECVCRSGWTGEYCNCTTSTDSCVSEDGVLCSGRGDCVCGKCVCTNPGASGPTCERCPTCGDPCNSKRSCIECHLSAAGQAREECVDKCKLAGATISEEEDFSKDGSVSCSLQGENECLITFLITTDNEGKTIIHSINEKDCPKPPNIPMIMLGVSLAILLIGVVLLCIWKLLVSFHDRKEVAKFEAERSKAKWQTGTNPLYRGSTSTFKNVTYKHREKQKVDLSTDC
Chain of UniProt P50552 (whole entry, looked up): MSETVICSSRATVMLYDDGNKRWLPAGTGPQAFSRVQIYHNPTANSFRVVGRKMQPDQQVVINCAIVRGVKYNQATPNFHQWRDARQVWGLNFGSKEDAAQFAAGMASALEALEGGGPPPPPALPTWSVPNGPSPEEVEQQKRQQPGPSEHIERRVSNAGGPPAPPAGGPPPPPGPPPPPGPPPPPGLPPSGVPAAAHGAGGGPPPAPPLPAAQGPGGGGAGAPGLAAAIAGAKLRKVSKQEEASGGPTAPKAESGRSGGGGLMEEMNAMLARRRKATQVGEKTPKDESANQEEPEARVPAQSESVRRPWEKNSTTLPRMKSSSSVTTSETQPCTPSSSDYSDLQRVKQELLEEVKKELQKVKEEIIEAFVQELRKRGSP
Chain of UniProt P00811 (whole entry, looked up): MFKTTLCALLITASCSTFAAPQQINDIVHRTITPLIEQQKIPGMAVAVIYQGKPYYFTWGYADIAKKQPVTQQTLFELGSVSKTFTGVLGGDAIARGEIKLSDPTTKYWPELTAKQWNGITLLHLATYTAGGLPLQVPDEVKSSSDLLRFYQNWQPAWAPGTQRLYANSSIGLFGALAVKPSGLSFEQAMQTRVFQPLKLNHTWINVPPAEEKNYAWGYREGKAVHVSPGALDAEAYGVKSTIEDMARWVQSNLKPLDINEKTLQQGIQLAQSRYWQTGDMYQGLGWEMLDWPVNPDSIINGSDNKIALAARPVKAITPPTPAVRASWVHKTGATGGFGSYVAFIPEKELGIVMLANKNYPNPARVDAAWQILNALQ
Chain of UniProt P06756 (whole entry, looked up): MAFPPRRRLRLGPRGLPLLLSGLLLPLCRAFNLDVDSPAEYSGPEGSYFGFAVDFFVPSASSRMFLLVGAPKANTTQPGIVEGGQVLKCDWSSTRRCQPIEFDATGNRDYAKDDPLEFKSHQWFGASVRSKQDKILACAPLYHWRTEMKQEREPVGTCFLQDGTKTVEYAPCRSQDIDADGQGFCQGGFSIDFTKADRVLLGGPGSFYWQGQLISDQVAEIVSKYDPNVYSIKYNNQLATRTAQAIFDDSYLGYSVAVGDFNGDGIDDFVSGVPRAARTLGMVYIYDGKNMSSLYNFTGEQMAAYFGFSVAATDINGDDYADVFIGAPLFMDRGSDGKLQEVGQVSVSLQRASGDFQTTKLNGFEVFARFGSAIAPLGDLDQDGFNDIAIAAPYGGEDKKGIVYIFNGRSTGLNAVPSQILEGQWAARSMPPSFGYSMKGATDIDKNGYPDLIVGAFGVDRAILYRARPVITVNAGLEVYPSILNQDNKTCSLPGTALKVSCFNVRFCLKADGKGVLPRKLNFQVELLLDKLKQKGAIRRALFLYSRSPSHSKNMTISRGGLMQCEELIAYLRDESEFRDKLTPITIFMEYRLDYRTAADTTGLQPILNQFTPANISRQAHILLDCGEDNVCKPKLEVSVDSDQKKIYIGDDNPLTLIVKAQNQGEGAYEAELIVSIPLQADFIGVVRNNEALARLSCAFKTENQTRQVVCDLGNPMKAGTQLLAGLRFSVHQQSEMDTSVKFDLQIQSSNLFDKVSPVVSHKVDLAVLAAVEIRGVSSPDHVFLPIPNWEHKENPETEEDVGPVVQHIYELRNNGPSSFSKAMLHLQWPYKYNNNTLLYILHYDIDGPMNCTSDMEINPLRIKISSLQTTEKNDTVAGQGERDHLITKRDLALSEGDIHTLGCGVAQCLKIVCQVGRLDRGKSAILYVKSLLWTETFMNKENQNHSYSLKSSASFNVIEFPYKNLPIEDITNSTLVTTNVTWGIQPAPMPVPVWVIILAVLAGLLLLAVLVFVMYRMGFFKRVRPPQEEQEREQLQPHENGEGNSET

| SMILES | target or system | assay | system | setting | scale | quantity | value |
| --- | --- | --- | --- | --- | --- | --- | --- |
| CC[C@H](C)[C@H](NC(=O)[C@@H](NC(=O)CC(NC(=O)[C@H](Cc1ccccc1)NC(=O)[C@H](C)NC(=O)[C@H](CCCNC(=N)N)NC(=O)CNC(=O)[C@@H]1CCCN1C(=O)CNC(=O)[C@@H](N)CCCNC(=N)N)c1ccccc1[N+](=O)[O-])[C@@H](C)O)C(=O)O (stereo partly shown) | H-2 class I histocompatibility antigen, D-D alpha chain, 21 (H2-D1, Mus musculus, UniProt P01900) |  |  |  |  | Kd | 31 µM |
| CC(C)(C)C(=O)OCOP(=O)(OCOC(=O)C(C)(C)C)C1CCCN(O)C1=O (stereo not shown) | NCI-H522 |  |  |  |  | log GI50 | -6.51 log M |
| CC[C@@H](C)[C@@H](NC(=O)[C@@H](CCC(N)=O)NC(=O)[C@H](NC(=O)[C@H]1CCCN1C(=O)[C@H](NC(=O)[C@@H](CO)NC(=O)[C@@H](Cc1ccccc1)NC(=O)[C@H]1CCCN1C(=O)[C@@H](CCC(N)=O)NC(=O)[C@H](N)CCSC)[C@H](C)CC)C(C)C)C(=O)N[C@@H](C(=O)N[C@H](CC(C)C)C(=O)N[C@H](CCC(N)=O)C(=O)NCC(=O)N[C@H](CO)C(=O)N[C@H](CCCNC(=N)N)C(=O)N[C@H](CCCNC(=N)N)C(=O)N[C@H](CCCNC(=N)N)C(=O)N[C@H](CCC(N)=O)C(=O)NCC(=O)N[C@H](CCCNC(=N)N)C(N)=O)[C@H](C)O | Kcnma1 (Mus musculus, UniProt Q08460) | ion current, blocker, inside-out patch clamp | Xenopus oocytes | +120 mV, with: 10 µM cytosolic Ca2+ |  | Kd | 2.7 µM |
| COC(=O)[C@@]1(O)C[C@H]2O[C@]1(C)n1c3ccccc3c3c4c(c5c6ccccc6n2c5c31)C(=O)NC4 | Tumor necrosis factor receptor superfamily member 16 (Homo sapiens, UniProt P08138) | binding, SPR |  |  |  | Kd | 0.346 µM |
| CSCCC(N)c1nc2ccccc2[nH]1 (stereo not shown) | Beta-lactamase (ampC, Escherichia coli K-12, UniProt P00811) |  |  |  |  | Kd | 1100 µM |
| CC[C@H](C)[C@H](NC(=O)[C@H](CCC(=O)O)NC(=O)[C@H](CCC(=O)O)NC(=O)[C@H](Cc1ccccc1)NC(=O)[C@H](CCCCN)NC(=O)[C@@H]1CCCN1C(=O)[C@H](Cc1c[nH]cn1)NC(=O)[C@H](CCCCN)NC(=O)[C@H](CO)NC(=O)[C@H](CC(C)C)NC(=O)[C@H](Cc1c[nH]cn1)NC(C)=O)C(=O)N[C@@H](CC(C)C)C(=O)N[C@H](C(=O)N[C@@H](CCCNC(=N)N)C(=O)N[C@@H](CC(C)C)C(=O)N[C@@H](CCCNC(=N)N)C(=O)N[C@@H](CC(C)C)C(=O)N[C@@H](CCC(N)=O)C(N)=O)[C@@H](C)O | Calmodulin-1, C-lobe (CALM1, Homo sapiens, UniProt P0DP23) | isothermal titration calorimetry | calmodulin C-lobe fragment | with: 1 mM CaCl2 |  | Kd | 3.22 µM |
| C[C@@H](O)[C@H](NC(=O)C(NC(=O)[C@@H](N)CS)C1CC1)C(=O)N[C@@H](CCCNC(=N)N)C(=O)NCC(=O)N[C@@H](CC(=O)O)C(=O)N[C@@H](Cc1ccc(O)cc1F)C(=O)N1CC(F)(F)CC1C(N)=O (stereo partly shown) | Integrin alpha-V/beta-6 (Homo sapiens, UniProt P06756+P18564) | binding, BLI |  |  |  | Kd | 63.8 µM |
| COc1ccccc1-c1n[nH]c2nc(NC3CCN(C(=O)Cc4ccc(F)cc4F)CC3)ncc12 |  | bead binding, competition bead pull-down, refers to: LINJ.23.0220 | Leishmania donovani axenic amastigote extract | 10 µM | baseline: vehicle | relative abundance | 0.94 |
| CC(C)CC(C(=O)N1CC2(CC1C#N)C(=O)Nc1ccccc12)N(C)C(=O)c1cc2c(F)cc(F)c(F)c2[nH]1 (stereo not shown) | CTSC (Homo sapiens, UniProt P53634) | enzyme activity, inhibitor |  |  |  | IC50 | > 100 µM |
| CC[C@H](C)[C@H](NC(=O)[C@H](CNC(=O)COCCNC(=O)CN(CCNC(=O)CN(CCNC(=O)CN(CCNC(=O)CN(CCNC(=O)[C@H](CCCNC(=N)N)NC(C)=O)C(=O)Cn1ccc(N)nc1=O)C(=O)Cn1cnc2c(=O)[nH]c(N)nc21)C(=O)Cn1cnc2c(=O)[nH]c(N)nc21)C(=O)Cn1ccc(N)nc1=O)NC(=O)[C@H](C)NC(=O)[C@H](CCCNC(=N)N)NC(=O)[C@H](CCCCN)NC(=O)[C@H](CCC(N)=O)NC(=O)[C@H](CCC(N)=O)NC(=O)[C@H](CC(N)=O)NC(=O)[C@@H](NC(=O)[C@H](CC(C)C)NC(=O)[C@H](CC(N)=O)NC(=O)[C@@H]1CCCN1C(=O)[C@H](CC(=O)O)NC(=O)[C@H](CC(C)C)NC(=O)[C@H](C)NC(=O)[C@H](CS)NC(=O)[C@H](CCCC(=O)NCC(=O)NCCN(CC(=O)NCCN(CC(=O)NCCN(CC(=O)NCCN(CC(=O)N[C@@H](CCCNC(=N)N)C(N)=O)C(=O)Cn1cnc2c(=O)[nH]c(N)nc21)C(=O)Cn1ccc(N)nc1=O)C(=O)Cn1ccc(N)nc1=O)C(=O)Cn1cnc2c(=O)[nH]c(N)nc21)NC(=O)[C@H](Cc1c[nH]c2ccccc12)NC(=O)[C@H](Cc1ccc(O)cc1)NC(=O)[C@H](CCCNC(=N)N)NC(=O)[C@H](CC(N)=O)NC(=O)[C@H](CCCNC(=N)N)NC(=O)[C@H](CCSC)NC(=O)[C@H](CCC(=O)O)NC(=O)[C@H](CCCCN)NC(=O)[C@H](CO)NC(=O)[C@H](Cc1ccccc1)NC(C)=O)[C@@H](C)O)C(=O)N[C@@H](CCCNC(=N)N)C(=O)N[C@@H](CO)C(=O)N[C@H](C(=O)N[C@@H](Cc1ccc(O)cc1)C(=O)N[C@@H](CCC(=O)O)C(=O)N[C@@H](CCC(=O)O)C(=O)NCC(=O)N[C@@H](CCC(=O)O)C(N)=O)[C@@H](C)CC | ERBB2 | binding, SPR |  |  |  | Kd | 0.047 µM |
| CC(=O)N[C@@H](CO)C(=O)N[C@@H](Cc1ccccc1)C(=O)N[C@@H](CCC(=O)O)C(=O)N[C@@H](Cc1ccccc1Cl)C(=O)N1CCC[C@]12C=C[C@@H]1CC[C@@H](C(=O)N3CC[C@@H]4C=C[C@H]5CC[C@@H](C(=O)N[C@H](C(=O)N[C@@H](CCC(=O)O)C(=O)N[C@@H](CC(=O)O)C(=O)N[C@@H](CCC(=O)O)C(=O)N[C@@H](CC(C)C)C(N)=O)[C@@H](C)O)N5C(=O)[C@H]43)N1C2=O | VASP (Homo sapiens, UniProt P50552) | binding, fluorescence |  |  |  | Kd | 0.25 µM |
| C=CC1CN(Cc2ccccn2)C(=O)C2CCCC1N2S(=O)(=O)c1cc(Cl)cc(Cl)c1 (stereo not shown) | uncharacterized protein, residues 23-253 (Pseudomonas aeruginosa, UniProt Q9HYX8) | binding, competitive fluorescence polarization |  | 30 min, protein 40 nM, with: fluorescent tracer 1 nM |  | Kd | 0.038 ± 0.006 µM |
| CC[C@H](C)[C@H](NC(=O)[C@H](CCCCNC(=O)CN(CCNC(=O)CN(CCNC(=O)CN(CCNC(=O)CN(CCNC(=O)[C@H](CCCNC(=N)N)NC(C)=O)C(=O)Cn1ccc(N)nc1=O)C(=O)Cn1cnc2c(=O)[nH]c(N)nc21)C(=O)Cn1cnc2c(=O)[nH]c(N)nc21)C(=O)Cn1ccc(N)nc1=O)NC(=O)[C@H](C)NC(=O)[C@H](CCCNC(=N)N)NC(=O)[C@H](CCCCN)NC(=O)[C@H](CCC(N)=O)NC(=O)[C@H](CCC(N)=O)NC(=O)[C@H](CC(=O)O)NC(=O)[C@@H](NC(=O)[C@H](CC(C)C)NC(=O)[C@H](CC(N)=O)NC(=O)[C@@H]1CCCN1C(=O)[C@H](CC(=O)O)NC(=O)[C@H](CC(C)C)NC(=O)[C@H](C)NC(=O)[C@H](CS)NC(=O)[C@H](CCCC(=O)NCCN(CC(=O)NCCN(CC(=O)NCCN(CC(=O)NCCN(CC(N)=O)C(=O)Cn1cnc2c(=O)[nH]c(N)nc21)C(=O)Cn1ccc(N)nc1=O)C(=O)Cn1ccc(N)nc1=O)C(=O)Cn1cnc2c(=O)[nH]c(N)nc21)NC(=O)[C@H](Cc1c[nH]c2ccccc12)NC(=O)[C@H](Cc1ccc(O)cc1)NC(=O)[C@H](CCCNC(=N)N)NC(=O)[C@H](CC(N)=O)NC(=O)[C@H](CCCNC(=N)N)NC(=O)[C@H](CC1CCC1)NC(=O)[C@H](CCC(=O)O)NC(=O)[C@H](CCCCN)NC(=O)[C@H](CO)NC(C)=O)[C@@H](C)O)C(=O)N[C@@H](CCCNC(=N)N)C(=O)N[C@@H](CO)C(=O)N[C@H](C(=O)N[C@@H](Cc1ccc(O)cc1)C(=O)N[C@@H](CCC(=O)O)C(=O)N[C@@H](CCC(=O)O)C(N)=O)[C@@H](C)CC | ERBB2 | binding, SPR |  |  |  | Kd | 0.0049 µM |
| CSCC[C@H](NC=O)C(=O)N[C@@H](CCCNC(=N)N)C(=O)N[C@H](C(=O)NCC(=O)N[C@@H](CC(N)=O)C(=O)N[C@@H](C)C(=O)N[C@@H](CC(N)=O)C(=O)NCC(=O)NCC(=O)N[C@@H](CCCCNC(=S)Nc1ccc2c(c1)C(=O)OC21c2ccc(O)cc2Oc2cc(O)ccc21)C(=O)O)[C@@H](C)O | Uncharacterized protein YejA (yejA, Escherichia coli, UniProt P33913, D495A) | binding, fluorescence polarisation |  | YejA variant D477A |  | Kd | 32.1 ± 2.98 µM |
| O=C1NC2(CC2)COc2ncc(F)cc2[C@H]2COCCN2c2ccn3ncc1c3n2 |  |  | Sprague-Dawley rat, male, serum | oral, 5 mg/kg/day, end of treatment, 4-week subacute toxicity |  | serum potassium | 4.75 ± 0.68 mmol/L |
| CS(C)(=O)=Nc1ccc(-c2ccc(-c3nc4cc(O[C@@H]5CO[C@H]6[C@@H]5OC[C@H]6O)[nH]c4cc3F)cc2)cc1 | EPHA5 (Homo sapiens, UniProt P54756) | enzyme activity, inhibitor |  | 10 µM |  | inhibition | 7% |
